# Published values of several laboratories.
# Lines come from different studies, so protocols differ. ± gives the spread as reported.
Structure (SMILES),organism,assay,test system,setting,how to read,endpoint,result
COc1ccc(S(=O)(=O)N(CC(=O)O)c2ccc(N(CC(=O)O)S(=O)(=O)c3ccc(OC)cc3)c3ccccc23)cc1,Salmonella typhimurium,,TA98,"concentration not given, together with: rat liver S9",baseline: vehicle,revertant fold increase,> 2 fold
CCOc1ccc2c(c1)C(C)=CC(C)(C)N2,Arenicola sp.,,spiked seawater with 0.01% acetone,10 days,,LC50,1.93 µg/mL
Nc1nc2ncc(CN(N=O)c3ccc(C(=O)NC(CCC(=O)O)C(=O)O)cc3)nc2c(=O)[nH]1 (centres unmarked),"Salmonella typhimurium, Escherichia coli",preincubation Ames test,,"concentration not given, with and without S9",,mutagenicity,negative
CCN(CC)CCCC(C)Nc1ccnc2cc(Cl)ccc12 (centres unmarked),Plasmodium falciparum,,"Vero, 3D7 chloroquine-sensitive",,baseline: CC50 Vero over IC50 parasite,selectivity ratio,23800
COc1ccc(C(c2ccc(OC)cc2)C(Cl)(Cl)Cl)cc1,Cyprinus carpio,everted gut sac,intestine,"concentration not given, 24 h, 23 °C",,concentration in serosal solution,140 ± 49 µg/mL
CSc1nc(NC(C)C)nc(NC(C)C)n1,Allium cepa,,root meristem,"6000 mg/L, 72 h",,micronucleus frequency,62.5 per 1000 cells
c1ccc(-c2ccccc2-c2ccccc2)cc1,Cyprinus carpio,everted gut sac,intestine,"concentration not given, 24 h, 23 °C",,concentration in mucosal solution,24.8 ± 6.2 µg/mL
Nc1ncnc2c([C@@H]3N[C@H](CO)[C@@H](O)[C@H]3O)c[nH]c12,Zika virus,,"Huh-7, PRVABC-59",unit not given,baseline: CC50 over EC90,SI90,14.9
CN(CCC=C1c2ccccc2CCc2ccccc21)N=O,"Salmonella typhimurium, Escherichia coli",preincubation Ames test,,"concentration not given, with and without S9",,mutagenicity,positive
Cc1cc(NC2CCCCC2)nc(-n2nc(C)cc2C)n1,Plasmodium falciparum,,3D7 stage III-V gametocytes,,baseline: SH-SY5Y IC50 over gametocyte IC50,selectivity ratio,~7.8 fold
CC(C)N(N=O)C(C)C,"Salmonella typhimurium, Escherichia coli",preincubation Ames test,,"concentration not given, with and without S9",,mutagenicity,positive
CC[C@H](C)[C@@H](CC(=O)N[C@@H](CCC(=O)O)CC(=O)O)NC(=O)C[C@@H](NC(=O)C[C@H](CCCN)NC(=O)C[C@H](Cc1c[nH]c2ccccc12)NC(=O)C[C@@H](NC(=O)C[C@H](CCC(=O)O)NC(=O)C[C@H](Cc1c[nH]c2ccccc12)NC(=O)C[C@@H](NC(=O)C[C@@H](N)CCCN)C(C)C)C(C)C)C(C)C,HIV-1,MTT,"MT2, IIIB",5 days,baseline: CC50 over EC50,selectivity index,1.8
CCCCCCOC(=O)NC(=N)c1ccc(N(Cc2nc3cc(C(=O)N(CCC(=O)OCC)c4ccccn4)ccc3n2C)N=O)cc1,"Salmonella typhimurium, Escherichia coli",preincubation Ames test,,"concentration not given, with and without S9",,mutagenicity,negative
CN(CCCC(=O)c1cccnc1)N=O,Salmonella typhimurium,,TA98,together with: human lung microsomes 0.5 mg + NADPH,baseline: DMSO,lowest mutagenic concentration,0.1 µM

# For quick reference, copied from above:
Structure (SMILES),organism,assay,test system,setting,how to read,endpoint,result
CN(CCC=C1c2ccccc2CCc2ccccc21)N=O,"Salmonella typhimurium, Escherichia coli",preincubation Ames test,,"concentration not given, with and without S9",,mutagenicity,positive
